Assay results from different studies.
Lines come from different studies, so protocols differ. Several values in a cell are separate wells, animals, samples, runs or records. ± gives the spread as reported.

For `C=CC(=O)N1[C@@H](c2ccc3c(c2)OCO3)c2[nH]c3ccccc3c2C[C@H]1C(=O)NC1CC1`, the neuron degeneration was 37.5% and 46.8% (rat DRG neurons; 3.333 µM, 48 h, with: vincristine 40 nM).
Under “log2 fold change”, `Cc1ncsc1-c1ccc(C(C)NC(=O)C2CC(O)CN2C(=O)C(NC(=O)CCCCCCCCCCN2CCCC(Nc3ncc(Cl)c(Nc4ccccc4S(=O)(=O)C(C)C)n3)C2)C(C)(C)C)cc1` (centres unmarked) is recorded as -1.12 (22Rv1; RNA-seq, measured: PIP4P1 mRNA; concentration not given; reference: DMSO).
With `O=C(Nc1nnc2c1c(-c1ccc(Cl)cc1)nc1sc(=Cc3ccco3)c(=O)n12)c1ccccc1` (mixture of isomers) the cell growth was 42.2% (SF-268; SRB; 10 µM, NCI60 single-dose screen; reference: untreated).
For `CCN(C(=O)c1cc(F)ccc1Oc1nncnc1N1CCC2(C1)CN([C@H](CCCN(C)CCOC)C(C)C)C2)C(C)C`, the GI50 was > 10000 nM (J82; cell growth or viability; 7 days).
With `CN(C)CCN1CCN(c2ccc3nc(-c4ccc5nc(-c6ccc(C(F)(F)F)cc6)[nH]c5c4)[nH]c3c2)CC1` the growth percent was 17.7% (SR; SRB; 10 µM, 48 h).
`O=C(C[Se]C(=O)c1ccccc1Nc1ccccc1)Nc1cccc(C(F)(F)F)c1` has a mean TGI of 3490 nM (NCI60 ovarian subpanel; total growth inhibition, inhibitor; five-dose).
With `C1=[N+]2CCCC[N+]3=Cc4ccc5[n]4[Au-]23[n]2c1ccc2-c1nc2ccccc2nc1-5.F[P-](F)(F)(F)(F)F` the TGI was 4.28 -log M (UACC-62; NCI60 five-dose screen).
For `CCN(CC)CC(=O)Nc1cccc(-n2cc(-c3ccc4ccc(-c5cn(-c6cccc(NC(=O)CN(CC)CC)c6)nn5)cc4c3)nn2)c1`, the fold regulation was -2.1 (RCC4; PCR angiogenesis array, measured: CXCL6; 5 x IC50, 6 h, normoxia; reference: untreated).
For `NC1=C(Cl)C(=O)c2ccccc2C1=O`, the selectivity index was 2.23 (MOLT-3; XTT; reference: IC50 MRC-5 over IC50 MOLT-3).
With `CC(C)(C)c1cc(-c2ccc3cccnc3n2)nc(-c2ccc3cccnc3n2)c1.COc1ccncc1.[Cl-].[Cl-].[Ru+2].c1ccc2cc3nc4c5cccnc5c5ncccc5c4nc3cc2c1` the EC50 was 654 ± 13 nM (SK-MEL-28; photocytotoxicity; light 633 nm, oxygen 18.5%).
With `CCCCCCc1cccc([C@H](O)C[C@H](CO)NC(=O)CCCCCCCCCCBr)c1` the sphingomyelin level was 636000 pmol/sample and 645000 pmol/sample and 519000 pmol/sample (HeLa; CERT activity, HPLC-MS/MS lipidomics, measured: sphingomyelin 16; 1 µM, 24 h, not cell-number normalised).
The IC50 of `CC(C)c1ccc(N(C)c2ccc3c(c2)OCC[C@H]3CNc2cnccc2C(=O)O)cc1` is reported as ≥ 10000 nM (OS-RC-2; cell viability, CellTiter-Glo; 7 days).
`O=C(C[Se]C(=O)c1ccccc1Nc1cccc(C(F)(F)F)c1)Nc1cccc(C(F)(F)F)c1` — result for “mean growth percent”: -90.2% (NCI60 ovarian subpanel; cell growth; 10 µM, 48 h, one-dose).
For `COC(=O)c1cc(NC2=NC(=O)C(=Cc3ccc(N(C)C)cc3)S2)ccc1OC(C)=O`, the metabolite level was -0.74 fold change (MCF7; GC-MS, measured: 11-Eicosenoic acid; 1 µM; reference: DMSO).
With `CC(=O)OC[C@H]1O[C@@H](n2cc(CSc3nc4ccccc4n3Cc3cn([C@@H]4O[C@H](COC(C)=O)[C@@H](OC(C)=O)C(OC(C)=O)[C@H]4OC(C)=O)nn3)nn2)[C@H](OC(C)=O)C(OC(C)=O)[C@@H]1OC(C)=O` (stereo in doubt) the cytotoxicity was 49.9% (HEK293; MTT; 62.5 ppm).
The GI50 of `Cc1c(Cl)cccc1Nc1ccccc1C(=O)[Se]CC(=O)Nc1cccc(C(F)(F)F)c1` is reported as 1690 nM (NCI60 ovarian subpanel; cell growth, inhibitor; five-dose).
For `O=C(Nc1cc(OCCN2CCCC2)c2ccccc2n1)c1cccc(C(=O)Nc2cc(OCCN3CCCC3)c3ccccc3n2)n1`, the selectivity ratio was 4 (U2OS; cell viability, CellTiter-Glo; 72 h; reference: IC50 U2OS over WI-38).
`Cc1[nH]c(=S)[nH]c(=O)c1/N=N/c1nnc(S)[nH]1` has an inhibition of 15.3 ± 1.49% (Vero; cell viability, MTT; 2.5 µg/mL).
For `CCCCCCCCCCCCCCCC(=O)OCC(CSC[C@H](N)C(=O)N[C@@H](CO)C(=O)N[C@@H](CCCCN)C(=O)N[C@@H](CCCCN)C(=O)N[C@@H](CCCCN)C(=O)N[C@@H](CCCCN)C(=O)NCCCCCC(=O)N[C@@H](CCCCN)C(=O)N[C@@H](CC(C)C)C(=O)N[C@H](C(=O)N[C@@H](Cc1ccccc1)C(=O)N[C@@H](Cc1ccccc1)C(=O)N[C@@H](Cc1ccc2ccccc2c1)C(=O)O)C(C)C)OC(=O)CCCCCCCCCCCCCCC` (some centres unmarked), “relative protein level” read 1.28 (BV-2; Western blot, measured: MSR1; concentration not given; reference: control).
`O=C(C[Se]C(=O)c1ccc2ccccc2n1)Nc1cccc(C(F)(F)F)c1` has a GI50 of 2000 nM (NCI60 ovarian subpanel; cell growth, inhibitor; five-dose).
For `CNS(=O)(=O)Nc1nccc(Cc2c(C)c3ccc(Oc4ncccc4F)cc3oc2=O)c1F`, the IC50 was > 1000 nM (JIMT-1; cell viability; 7 days).
`COc1cc(N2CCN(C(=O)C3CCCN3)CC2)ccc1Nc1ncc(Cl)c(Nc2ccccc2P(C)(C)=O)n1` (centres unmarked) — result for “late apoptotic cells”: 2.6% and 2.79% and 2.71% (Ba/F3 EML4-ALK; flow cytometry; concentration not given, 0.5 h).
`Cn1ncc2cc(-c3cncc(Cl)c3N3CCC4(CCNC4=O)CC3)ccc21` — result for “log2 fold change”: 2.44 (LS174T; gene expression, microarray, measured: NFE2L2 mRNA; concentration not given, 24 h; reference: untreated cells).
Under “log2 fold change”, `CN1CCCNC(=O)c2cccc(c2)C(=O)NCCCN(C)CCCNc2cccc3c2C(=O)c2cccc(c2C3=O)NCCC1` is recorded as -0.806 (SAS; RNA-Seq, measured: ZNF207 mRNA; 1 µM, 6 h; reference: untreated cells).
With `O=C(C[Se]C(=O)c1cc2ccccc2[nH]1)Nc1cccc(C(F)(F)F)c1` the GI50 was 1330 nM (NCI60 ovarian subpanel; cell growth, inhibitor; five-dose).
`Cc1ccc([N+](=O)[O-])cc1S(=O)(=O)N(C)/N=C/c1cnc2ccc(Br)cn12` has a live cells of 44.5% (HuT78; 200 nM).
The colony count of `COc1ccccc1-c1ccncc1C(=O)Nc1nnc(OCc2ccc(Cl)cc2)s1` is reported as 17 and 14 and 22 and 28 and 16 (DLD-1 BRCA2-/-; 2 µM).
The viability of `COc1ccc(CNc2ccc3c(c2)S(=O)(=O)C=C3)cc1` is reported as 65% (U-251 MG; resazurin; 5 µM, 24 h).
`CO[C@@H]1[C@@H](OC(N)=O)[C@@H](O)[C@H](Oc2ccc3c(O)c(NC(=O)c4ccc(O)c(CC=C(C)C)c4)c(=O)oc3c2C)OC1(C)C` gave a colony count of 0.1 (HCT-116 BRCA2-/-; 250 µM, replicate 1).
`CC(C)Cc1ccc(C(C)C(=O)[Se]CC(=O)Nc2cccc(C(F)(F)F)c2)cc1` (centres unmarked): “mean growth percent” -85.7% (NCI60 ovarian subpanel; cell growth; 10 µM, 48 h, one-dose).
`CC(=O)NCCCN(C)CCCNc1cccc2c1C(=O)c1cccc(NCCCN(C)CCCNC(C)=O)c1C2=O`: “log2 fold change” 1.29 (SAS; RNA-seq, measured: MT-TW mRNA; 1 µM, 24 h; reference: untreated cells).
`COc1ccc(NC(=O)c2ccc3[nH]c(-c4ccc(N(C)C)cc4)nc3c2)cn1`: “dead cell to confluence ratio” 5.41 and 3.74 and 66.1 (HCEC-hTERT; IncuCyte; concentration not given, 10 h).
`COC(=O)c1cc(NC2=NC(=O)C(=Cc3ccc(C)cc3)S2)ccc1OC(C)=O` has a metabolite level of 0.11 fold change (MCF7; GC-MS, measured: Spermidine; 1 µM; reference: DMSO).
`CC[C@H](CO)Nc1nc(NCc2ccc(-c3ccccn3)cc2)c2ncn(C(C)C)c2n1` — result for “log2 fold change”: 1.07 (MOLT-4; tandem mass tag proteomics, measured: IREB2; 1 µM, 1 h; reference: DMSO).
For `COc1cc([C@@H]2O[C@@H](c3cc(OC)c(O[C@@H]4O[C@H](CO)[C@@H](O)[C@H](O)[C@H]4O)c(OC)c3)[C@H](CO)[C@H]2CO)cc(OC)c1O`, glycerol release read “increased” (human pre-adipocytes PCS-210-010; 5 to 20 µM, 48 h).
